Assay results pooled from the literature.
Compare with care: the assays were run in different laboratories. ± marks the error that the study gave.

Substance | cell line | test | setting | IC50
O=c1c(/C=C/c2ccccn2)nc2ccccc2n1Cc1ccccc1 | NCI-H460 | cell growth or viability, MTT | 72 h | 26.1 µM
COc1cc(/C=C/C(=O)N2CCC=CC2=O)cc(OC)c1OC | Hs-578T | cell growth or viability, MTT |  | 3 µM
C[C@H](Cn1cnc2c(N)ncnc21)OCP(=O)(O)O | HepG2.A64, entecavir-resistant | cell growth | 96 h | 210 µM
COc1c2ccoc2c(OCC=C(C)C)c2oc(=O)ccc12 | COLO 320 multidrug-resistant | cell growth, MTT | 72 h | 43.7 ± 1.78 µM
Fc1cc(-c2nc3ccc(Cl)cc3[nH]2)ccc1OCc1cn(CCN2CCOCC2)nn1 | Z-138 | cell growth or viability, MTS | 72 h | > 100 µM
C#CCOc1ccc(/C=N\NC(N)=S)cc1 | T47D | cell growth or viability, MTT | 48 h | 130 µM
NCCN.O=C1[O][Pt]2([O]C(=O)C13CCC3)[O]C(=O)C1(CCC1)C(=O)[O]2 | CH1 | cell viability, MTT | 96 h | 170 ± 54 µM
CCN(CC)CCOc1ccc(-c2nc3ccccc3[nH]2)cc1 | Z-138 | cell growth or viability, MTS | 72 h | 46.2 µM
CC(=O)Nc1ccc(O)cc1 | ReNcell VM | cell viability, live/dead 3D alginate microarray | 24 h exposure plus 48 h | 2450 µM
NCC[C@@H]1NC(=O)c2coc(n2)-c2coc(n2)-c2cccc(c2)-c2cccc(c2)-c2nc(co2)-c2nc(co2)CNC1=O | KB-3-1 | cytotoxicity, MTT | 4 days | ≥ 5 µM
CNC(=O)c1cc(Oc2ccc(NC(=O)Nc3ccc(C(F)(F)C(F)(F)F)cc3)c(F)c2)ccn1 | mouse MYC-CTNNB1 tumour organoids | viability |  | 1 µM
COc1cc(C(=O)c2cc3cc(F)ccc3[nH]2)cc(OC)c1OC | A-375, WM164, LNCaP, PC-3, DU-145, PPC-1 | cell growth |  | 4.4 µM
O=C(NO)c1ccc(-c2cccc3ccccc23)cc1 | urothelial cancer cell lines | cell viability, CellTiter-Glo | 72 h | 9 to 21 µM
N#CC(=NNc1ccc(S(=O)(=O)Nc2ncccn2)cc1)C(N)=S | A-431 | cell growth or viability, MTT | 48 h | 18.2 µM
COc1cc2c(cc1O)[C@@H]1[C@H](O)[C@@H](O)C=C3CCN(C2)[C@H]31 | SK-MEL-28 | cell growth or viability, MTT | 72 h | 15.5 µM
Cc1cc(C)n(C(C(=O)OC(C)C)n2nc(C)cc2C)n1 | LoVo OXP, oxaliplatin-resistant | MTT | 72 h | > 50 µM
Cc1cc(Nc2ncnc3ccc(NC4=NC(C)(C)CO4)cc23)ccc1Oc1ccn2ncnc2c1 | A-431 | cell growth or viability, ATP luminescence | 72 h | 28.5 µM
CC(C)C[C@H](NC(=O)[C@@H](NC(=O)[C@@H]1CCCN1C(=O)[C@@H](NC(=O)[C@H](CO)NC(=O)[C@@H](NC(=O)[C@H](CCC(N)=O)NC(=O)[C@@H]1CCCN1C(=O)[C@@H](NC(=O)[C@H](CCCCN)NC(=O)[C@H](CCCCN)NC(=O)[C@@H](NC(=O)[C@H](Cc1ccc(O)cc1)NC(=O)[C@H](CCCNC(=N)N)NC(=O)[C@@H](NC(=O)[C@@H](N)CC(C)C)C(C)C)[C@@H](C)O)C(C)C)C(C)C)[C@@H](C)O)[C@@H](C)O)C(=O)O | SUP-T1 | AKT phosphorylation, inhibitor, phosphoflow cytometry | added: CXCL12 100 ng/mL, 2 min | 67.6 ± 30.6 µM
CC(C)Oc1ccc(C(=O)Cn2ccnc2)cc1-n1c(CN2CCN(C(=O)COc3ccc(Cl)cc3)CC2)nc2ccccc2c1=O | SU-DHL-8 | cell viability, CellTiter-Glo | 24 h | 0.1 to 10 µM
COc1cc(F)c([C@@H]2CNC(=O)[C@H]2NC(=O)Nc2ccccc2)c(F)c1 | differentiated HL-60 FPR1-deficient | chemotaxis, antagonist | added: serum amyloid A | 0.014 µM
CCOC(=O)/C(C#N)=N\Nc1ccc(S(=O)(=O)Nc2ncccn2)cc1 | A-431 | cell growth or viability, MTT | 48 h | 14.7 µM
O=c1[nH]c2ccccc2nc1/C=C/c1ccc2ccccc2c1 | B16-F10 | cell growth or viability, MTT | 72 h | 7.09 µM
C=CC(=O)N1CCC[C@@H](n2nc(-c3ccc(Oc4ccccc4)cc3)c3c(N)ncnc32)C1 | OCI-Ly10 | cell growth or viability, CCK-8 | 72 h | 0.467 µM
Cn1c(=O)c(/C=C/c2ccc(F)cc2)nc2ccccc21 | B16-F10 | cell growth or viability, MTT | 72 h | 0.03 µM
CC(=O)C(=O)O | QGP-1 | glucose-induced ECAR | 20 min | 540 ± 80 µM
COc1cccc2c1C(=O)c1c(O)c3c(c(O)c1C2=O)C[C@@](O)(C(=O)CO)C[C@@H]3O[C@H]1C[C@H](N)[C@H](O)[C@H](C)O1 | MCF7 multidrug-resistant | cell growth, MTT | 24 h | > 100 µM

Substance | cell line | test | setting | IC50
O=Cc1ccc(CO)o1 | Hepa-1c1c7 | cell growth or viability |  | > 100 µM
CCCS(=O)(=O)Nc1ccc(F)c(C(=O)c2c[nH]c3ncc(-c4ccc(Cl)cc4)cc23)c1F | A-375 inducible BRAF V600E modest | ERK signalling, Western blot | 1 h, added: 0.02 µg/mL doxycycline | 0.1 to 0.3 µM
Cc1cc(C)c(N2CCN(c3c(C)cc(C)cc3C)[C]2=[Au][Se]c2ccccc2)c(C)c1 | Vero E6 | cytotoxicity, crystal violet staining | 96 h | 6 ± 0.3 µM
CC(C)=CCC/C(C)=C/CC/C(C)=C/CC[C@]1(C)CCc2cc(O)cc(C)c2O1 | differentiated HL-60 | LTB4 formation | 10 min preincubation, added: thapsigargin | 8 µM
N=C(N)NCCC[C@H](NC(=O)[C@H](Cc1c[nH]c2ccccc12)NC(=O)[C@H](CCC(N)=O)NC(=O)[C@H](Cc1c[nH]c2ccccc12)NC(=O)[C@H](CCCNC(=N)N)NC(=O)[C@H](Cc1c[nH]c2ccccc12)NC(=O)[C@H](CCC(N)=O)NC(=O)[C@H](Cc1c[nH]c2ccccc12)NC(=O)[C@H](CCCNC(=N)N)NC(=O)[C@@H](N)CCCNC(=N)N)C(N)=O | MCF-12 | cell viability, MTT | 2 h | > 121 µM
OC[C@H]1O[C@@H](Oc2cc3c(O)cc(O)cc3[o+]c2-c2ccc(O)c(O)c2)[C@H](O[C@@H]2OC[C@@H](O)[C@H](O)[C@H]2O)[C@@H](O)[C@@H]1O | Hepa-1c1c7 | cell growth or viability |  | > 100 µM
Cc1ccc(NC(=O)c2ccc3c(c2)CC[C@@H]3N2CCN(C)CC2)cc1C#Cc1cnc2ccc(Cl)nn12 | KU812 | cell growth or viability | 72 h | ~0.001 µM
CS(=O)(=O)c1ccc2nc(NC(=O)Cn3cc(COc4ccc(/C=N\Nc5ccc([N+](=O)[O-])cc5[N+](=O)[O-])cc4)nn3)sc2c1 | T47D | cell growth or viability, MTT | 48 h | 84 µM
CS(=O)(=O)CCNCc1ccc(-c2ccc3ncnc(Nc4ccc(OCc5cccc(F)c5)c(Cl)c4)c3c2)o1 | NCI-N87 | cell growth, inhibitor | standard medium | 0.0352 ± 0.006 µM
C=CC(C)(CO)c1cc(CC(=O)c2ccc(O)cc2O)c(O)cc1O (stereo not shown) | Hepa-1c1c7 | cell growth or viability |  | > 100 µM
O=c1cc(-c2ccccc2)oc2cc(O)cc(O)c12 | Jurkat | cell growth or viability, ATP luminescence | 24 h | 180 µM
CN(C)CCn1cnc2ccc(-c3ccc4sc(NC(=O)Nc5ccc(F)cc5)nc4c3)cc2c1=O | BEAS-2B | cell growth or viability, MTT | 72 h | 1.28 µM
CC(C)c1c(C(=O)Nc2ccccc2)c(-c2ccccc2)c(-c2ccc(F)cc2)n1CC[C@@H](O)C[C@@H](O)CC(=O)O | T47D | cell growth, SRB | 72 h | 44.4 µM
O=c1[nH]c2ccccc2nc1/C=C/c1ccccc1[N+](=O)[O-] | B16-F10 | cell growth or viability, MTT | 72 h | 40.5 µM
[Au(PPh3)SePh] | Vero E6 | cytotoxicity, crystal violet staining | 96 h | 1.9 ± 0.3 µM
C=CC(=O)Nc1cc(Nc2nccc(-c3cn(C)c4ccccc34)n2)c(OC)cc1N(C)CCN(C)C | NCI-H1975 resistant to compound |  |  | 2.6 µM
Fc1cc(-c2nc3ccc(Cl)cc3[nH]2)ccc1OCCN1CCOCC1 | Z-138 | cell proliferation, MTS | 72 h | 80.5 µM
O=c1c(/C=C/c2ccccc2Br)nc2ccccc2n1Cc1ccccc1 | B16-F10 | cell growth or viability, MTT | 72 h | 16.9 µM
COc1cccc2c1C(=O)c1c(O)c3c(c(O)c1C2=O)C[C@@](O)(C(=O)CO)C[C@@H]3O[C@H]1C[C@H](N)[C@H](O)[C@H](C)O1 | HCT-15/ADM2 | cell growth, XTT | 72 h | 1.11 µg/mL
CC[C@]1(O)C[C@H]2CN(CCc3c([nH]c4ccccc34)[C@@](C(=O)OC)(c3cc4c(cc3OC)N(C=O)[C@H]3[C@@](O)(C(=O)OC)[C@H](OC(C)=O)[C@]5(CC)C=CCN6CC[C@]43[C@@H]65)C2)C1 | iPSC-derived sensory neurons | neurite length, high-content imaging | 48 h | 0.063 µM
Cn1c(=O)c(/C=C/c2ccccn2)nc2ccccc21 | NCI-H460 | cell growth or viability, MTT | 72 h | 5.78 µM
Cc1ccc2nc(NC(=O)Cn3cc(COc4ccc(/C=N/NC(=O)c5ccncc5)cc4)nn3)sc2c1 | T47D | cell growth or viability, MTT | 48 h | 101 µM
O=c1c(/C=C/c2ccccc2F)nc2ccccc2n1Cc1ccccc1 | B16-F10 | cell growth or viability, MTT | 72 h | 5.56 µM
Clc1ccc2nc(-c3ccc(OCc4cn(CCN5CCOCC5)nn4)cc3)[nH]c2c1 | Z-138 | cell growth or viability, MTS | 72 h | 55.7 µM
O=c1[nH]c2ccccc2nc1/C=C/c1ccc(C(F)(F)F)cc1 | NCI-H460 | cell growth or viability, MTT | 72 h | > 50 µM
Nc1nc2[nH]c(CCCc3ccc(C(=O)N[C@@H](CC(=O)O)C(=O)O)s3)cc2c(=O)[nH]1 | CHO RT16 (human FRα) | cell growth | added: folic acid 200 nM | > 1 µM
